Published values collected from several papers.
Each line is one published result; not all experiments were run side by side. ± gives the spread as reported.
UniProt P50052, sequence (whole entry, looked up): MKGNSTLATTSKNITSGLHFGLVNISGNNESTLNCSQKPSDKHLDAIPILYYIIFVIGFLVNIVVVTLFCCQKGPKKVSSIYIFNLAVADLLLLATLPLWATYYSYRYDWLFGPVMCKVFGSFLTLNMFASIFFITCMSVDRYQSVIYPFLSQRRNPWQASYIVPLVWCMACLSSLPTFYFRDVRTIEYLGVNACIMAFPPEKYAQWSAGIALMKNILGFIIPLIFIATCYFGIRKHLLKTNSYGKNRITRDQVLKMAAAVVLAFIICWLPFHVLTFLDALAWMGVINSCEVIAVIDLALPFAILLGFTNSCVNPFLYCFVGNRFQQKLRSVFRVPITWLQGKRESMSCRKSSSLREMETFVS
UniProt P62258, sequence (whole entry, looked up): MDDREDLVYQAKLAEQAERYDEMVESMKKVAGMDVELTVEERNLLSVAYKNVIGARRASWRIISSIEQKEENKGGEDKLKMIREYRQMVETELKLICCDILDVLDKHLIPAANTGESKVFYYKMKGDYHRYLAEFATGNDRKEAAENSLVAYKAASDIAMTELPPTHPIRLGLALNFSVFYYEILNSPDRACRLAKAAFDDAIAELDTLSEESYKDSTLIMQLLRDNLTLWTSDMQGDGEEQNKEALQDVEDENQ
UniProt P05177, sequence (whole entry, looked up): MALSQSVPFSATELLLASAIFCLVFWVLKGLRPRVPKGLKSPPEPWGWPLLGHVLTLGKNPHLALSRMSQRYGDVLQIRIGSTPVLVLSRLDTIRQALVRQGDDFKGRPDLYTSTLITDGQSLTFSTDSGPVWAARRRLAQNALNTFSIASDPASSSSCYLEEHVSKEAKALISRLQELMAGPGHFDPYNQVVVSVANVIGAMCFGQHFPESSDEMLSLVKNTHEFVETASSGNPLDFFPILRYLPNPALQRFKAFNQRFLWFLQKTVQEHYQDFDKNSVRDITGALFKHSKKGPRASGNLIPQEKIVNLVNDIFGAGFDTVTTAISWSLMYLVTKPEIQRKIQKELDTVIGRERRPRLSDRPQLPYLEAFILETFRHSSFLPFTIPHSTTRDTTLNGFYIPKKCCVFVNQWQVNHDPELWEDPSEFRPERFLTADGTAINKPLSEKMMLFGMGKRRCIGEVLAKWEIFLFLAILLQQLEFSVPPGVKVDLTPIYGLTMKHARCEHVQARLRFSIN

CC[C@H](C)[C@H](NC(=O)[C@H](Cc1ccccc1)NC(=O)[C@H](CCC(=O)O)NC(=O)[C@H](CCCNC(=N)N)NC(=O)[C@H](C)NC(=O)[C@H](C)NC(=O)[C@H](CCC(N)=O)NC(=O)[C@H](CCC(=O)O)NC(=O)[C@H](CCC(=O)O)NC(=O)[C@H](CC(C)C)NC(=O)[C@H](Cc1ccc(O)cc1)NC(=O)[C@H](CO)NC(=O)[C@H](CO)NC(=O)[C@@H](NC(=O)[C@H](CC(=O)O)NC(=O)[C@H](CO)NC(=O)[C@@H](NC(=O)[C@H](Cc1ccccc1)NC(=O)[C@@H](NC(=O)CNC(=O)[C@H](CCC(=O)O)NC(=O)[C@H](C)NC(=O)CCc1c[nH]cn1)[C@@H](C)O)[C@@H](C)O)C(C)C)C(=O)N[C@@H](C)C(=O)N[C@@H](Cc1c[nH]c2ccccc12)C(=O)N[C@@H](CC(C)C)C(=O)N[C@H](C(=O)N[C@@H](CCCNC(=N)N)C(=O)NCC(=O)N[C@@H](CCCNC(=N)N)C(=O)N[C@@H](CCCCNC(=O)COCCOCCNC(=O)COCCOCCNC(=O)CC[C@H](NC(=O)CCCCCCCCCCCCCCCCC(=O)O)C(=O)O)C(=O)NCC(=O)NCC(=O)N[C@@H](CO)C(=O)N[C@@H](CCCCNc1c(NCCCCCN(O)C(=O)CCC(=O)NCCCCCN(O)C(=O)CCC(=O)NCCCCCN(O)C(C)=O)c(=O)c1=O)C(=O)O)C(C)C [zirconium-89 labelled]
tissue uptake (rat, spleen; sc, 3 nmol/kg, 4 h, ex vivo): 0.12 %ID/g

COc1cc2c(Oc3ccc4[nH]c(C)cc4c3F)ccnc2cc1OCC1(N)CC1
incidence of adverse event (item: grade 3 gingival bleeding; paediatric high-risk refractory sarcoma; 8 mg): 0%

C[C@H]1CN(c2n[nH]c3nc(N[C@H]4CC[C@H](NS(=O)(=O)CCC(F)(F)F)CC4)ncc23)CCO1
remaining binding (14-3-3 protein epsilon (Homo sapiens, UniProt P62258); Kinobeads competition, item: YWHAE; 0.032 µM, unit not given; baseline: vehicle): 1.04

O=c1ccc2ccccc2o1
point of departure (HepaRG 3D spheroids; oxidative stress; 168 h, high-content imaging): 727 µM

O=C1c2c(O)c(=O)ccn2N([C@@H]2c3ccccc3SCc3c2ccc(F)c3F)[C@@H]2COCCN12
plasma concentration (BALB/c mice, plasma; oral, 0.5 mg/kg baloxavir marboxil, 2 h): 3.75 ng/mL

CN1CC[C@@H](c2c(O)cc(O)c3c(=O)cc(-c4ccc(C(F)(F)F)cc4Cl)oc23)[C@@H]1CO
patients with adverse event (item: Hyperglycemia; relapsed AML; oral, 200 mg, grade 3-4, intermittent dosing): 0%

COc1cccc(-c2n[nH]c(SCc3ccccn3)n2)c1OC
revertant colonies per plate (Salmonella typhimurium; Ames test, plate incorporation; TA1535; 0.25 mg/plate, with rat liver S9): 16

O=S(=O)(Nc1ccccc1)c1ccc(NC(=S)Nc2ccccc2)cc1
blood chemistry level (item: Bu; female mouse, blood; oral, 5 mg/kg daily, 14 days): 0.1 mg/dL

[Cl-].[Cl-].[Pt+2].[Ru+2].c1ccc(-c2nc3ccccc3nc2-c2ccccn2)nc1.c1cnc2c(c1)ccc1cccnc12.c1cnc2c(c1)ccc1cccnc12
survival rate (Danio rerio; embryos; 45 µM, 96 h): 73.3 ± 2.4%

CC[C@H](C)[C@H](NC(=O)[C@H](CC(C)C)NC(=O)[C@@H](NC(=O)[C@@H](NC(=O)[C@@H](NC(=O)[C@H](CCCNC(=N)N)NC(=O)[C@H](CCCNC(=N)N)NC(=O)[C@H](CCCNC(=N)N)NC(=O)[C@@H](N)CCCNC(=N)N)C(C)C)[C@@H](C)CC)[C@@H](C)CC)C(=O)N[C@H](C(=O)N[C@@H](CC(C)C)C(=O)N[C@@H](CCCNC(=N)N)C(=O)N[C@@H](CCCNC(=N)N)C(=O)N[C@@H](CCCNC(=N)N)C(=O)N[C@@H](CCCNC(=N)N)C(=O)N[C@@H](Cc1ccccc1)C(=O)N[C@@H](CO)C(=O)N[C@@H](C)C(=O)N[C@@H](Cc1ccc(O)cc1)C(N)=O)C(C)C
hemolysis (human erythrocytes; 400 µM, 1 h; baseline: Triton X-100): 19%

COc1cc(Nc2ncc(F)c(Nc3ccc4c(n3)NC(=O)C(C)(C)O4)n2)cc(OC)c1OC
IC50 (AGTR2 (Homo sapiens, UniProt P50052)): > 10 µM

CC(C)CC(=O)OC[C@H]1O[C@@](C#N)(c2ccc3c(N)ncnn23)[C@H](O)[C@@H]1O
half-life (Cytochrome P450 1A2 (CYP1A2, Homo sapiens, UniProt P05177); metabolic stability; recombinant enzyme; 1 µM): > 4.13 h

C[C@@H](O)[C@@H](CO)NC(=O)[C@@H](CCCNC(=N)N)NC(=O)[C@@H]1CCCN1C(=O)[C@@H]1CSSC[C@H](NC(=O)[C@H](Cc2ccccc2)NC(=O)CN2CCN(CC(=O)O)CCN(CC(=O)O)CCN(CC(=O)O)CC2)C(=O)N[C@@H](Cc2ccc(O)cc2)C(=O)N[C@@H](Cc2ccccc2)C(=O)N[C@@H](CCC(N)=O)C(=O)N[C@@H](CC(N)=O)C(=O)N1 [gallium-68 labelled]
tissue uptake (Wistar rat, lungs; intravenous, 8 MBq, 60 min, group mean): 0.6 %ID/g

CC[C@H](C)[C@@H]1NC(=O)[C@@H]2CCCN2C(=O)[C@H](CC(C)C)NC(=O)[C@H](CC(C)C)NC(=O)CNC(=O)[C@@H](NC(=O)[C@@H](NC(=O)[C@H](CC(=O)O)NC(=O)CNC(=O)[C@@H](NC(=O)[C@H](C)NC(=O)CNC(=O)[C@H](CCCCN)NC(=O)[C@H](CC(C)C)NC(=O)[C@H](CC(C)C)NC(=O)[C@H](CCCCN)NC(=O)CNC(=O)[C@@H](NC(=O)[C@@H](N)CC(C)C)C(C)C)C(C)C)C(C)C)CSSC[C@@H](C(=O)O)NC1=O
log2 fold change (RNA-seq, item: Ighv8-8 mRNA; mouse traumatic brain injury, frontal cortex and hippocampus; dose not given; baseline: TBI plus compound vs TBI): -4.61

CO[C@H]1C[C@@H]2CC[C@@H](C)[C@@](O)(O2)C(=O)C(=O)N2CCCC[C@H]2C(=O)O[C@H]([C@H](C)C[C@@H]2CC[C@@H](OC(=O)NCCOCCOCCOCCOCCOCCOCCOCCOCCC(=O)N3CCc4cc(Cn5nc(-c6ccc7oc(N)nc7c6)c6c(N)ncnc65)ccc4C3)[C@H](OC)C2)C[C@@H](O)[C@H](C)/C=C(\C)[C@@H](O)[C@@H](OC)C(=O)[C@H](C)C[C@H](C)/C=C/C=C/C=C/1C
AE leading to dose reduction (patients with advanced solid tumours; intravenous, 16 mg weekly, any grade): 75%

Repeated from above:
C[C@H]1CN(c2n[nH]c3nc(N[C@H]4CC[C@H](NS(=O)(=O)CCC(F)(F)F)CC4)ncc23)CCO1
remaining binding (14-3-3 protein epsilon (Homo sapiens, UniProt P62258); Kinobeads competition, item: YWHAE; 0.032 µM, unit not given; baseline: vehicle): 1.04
